Measured values pooled from the literature.
Protocols differ between the studies behind these lines. ± marks the error that the study gave.

SMILES	assay	system	conditions	tissue uptake [%ID/g]
CCCC[C@H]1C(=O)N(C)[C@@H](CCCC)C(=O)N[C@@H](CCCNC(=O)CN2CCN(CC(=O)O)CCN(CC(=O)O)CCN(CC(=O)O)CC2)C(=O)N[C@H](C(=O)NCC(N)=O)CSCC(=O)N[C@@H](Cc2ccc(O)cc2)C(=O)N(C)[C@@H](C)C(=O)N[C@@H](CC(N)=O)C(=O)N2CCC[C@H]2C(=O)N[C@@H](Cc2c[nH]cn2)C(=O)N[C@@H](CC(C)C)C(=O)N(C)CC(=O)N[C@@H](Cc2c[nH]c3ccccc23)C(=O)N[C@@H](CO)C(=O)N[C@@H](Cc2c[nH]c3ccccc23)C(=O)N1C [gallium-68 labelled]	–	NOD/SCID mice with CHO-hPD-L1 xenograft, pancreas	10 min post injection	2.04 ± 0.15
CC(C)C[C@@H](NC(=O)[C@@H](CCCNC(=N)N)NC(=O)[C@@H](Cc1c[nH]cn1)NC(=O)[C@@H](Cc1c[nH]c2ccccc12)NC(=O)[C@@H](Cc1c[nH]cn1)NC(=O)[C@@H](Cc1ccccc1)NC(=O)[C@H](NC(=O)[C@@H](Cc1ccc(O)cc1)NC(=O)CNC(=O)CNC(=O)CCOCCOCCOCCNC(=O)CN1CCN(CC(=O)O)CCN(CC(=O)O)CC1)[C@H](C)O)C(=O)N[C@H](CC(N)=O)C(=O)N1CCC[C@@H]1C(=O)O [gallium-68 labelled]	–	C57BL/6 mice, male, lung	intravenous, 1.85 MBq, 60 min, with: GP12 blocking	1.13 ± 0.32
CSCC[C@H](NC(=O)CNC(=O)[C@H](CCCCN)NC(=O)[C@H](CC(C)C)NC(=O)[C@@H]1CCCN1C(=O)[C@H](CO)NC(=O)[C@H](Cc1c[nH]cn1)NC(=O)[C@H](Cc1c[nH]c2ccccc12)NC(=O)[C@H](CCCNC(=N)N)NC(=O)[C@H](CC(C)C)NC(=O)[C@H](CCCNC(=N)N)NC(=O)[C@H](Cc1c[nH]c2ccccc12)NC(=O)[C@H](CS)NC(=O)CCCCCNC(=O)CN1CCN(CC(=O)O)CCN(CC(=O)O)CCN(CC(=O)O)CC1)C(=O)O [copper-64 labelled]	ex vivo biodistribution	male C57BL/6J mice, bone	intravenous, 1.85 MBq, 2 h, B16-F10 tumour-bearing	1.83
CC[C@H](C)[C@H](NC(=O)[C@H](CCCNC(=N)N)NC(=O)[C@H](CCCCN)NC(=O)[C@H](Cc1ccc(O)cc1)NC(=O)[C@H](CC(=O)O)NC(=O)[C@H](C)NC(=O)CNC(=O)CCOCCOCCOCCNC(=O)CN1CCN(CC(=O)O)CCN(CC(=O)O)CCN(CC(=O)O)CC1)C(=O)N[C@H](C(=O)N[C@@H](CC(C)C)C(=O)N[C@@H](CCCCN)C(=O)N[C@H](C(=O)N[C@@H](CC(N)=O)C(N)=O)C(C)C)[C@@H](C)O [copper-64 labelled]	ex vivo gamma counting	C57BL/6J male mice, B16-F10 tumour, kidney	intravenous, 1.85 MBq, 5 min	22.8 ± 1.39
C[C@H](O)[C@@H](NC(=O)[C@H]1CCCN1C(=O)[C@@H](CCCCN)NC(=O)[C@@H](CO)NC(=O)[C@@H](Cc1ccc(O)cc1)NC(=O)[C@@H](CC(N)=O)NC(=O)CCOCCOCCOCCNC(=O)CN1CCN(CC(=O)O)CCN(CC(=O)O)CCN(CC(=O)O)CC1)C(=O)N[C@H](CC(=O)O)C(=O)N[C@H](CCCNC(=N)N)C(=O)N[C@H](CCC(N)=O)C(=O)N[C@H](Cc1ccc(O)cc1)C(=O)N[C@H](Cc1c[nH]cn1)C(=O)N[C@H](Cc1ccccc1)C(N)=O [gallium-68 labelled]	–	BALB/c nude mice U-87 MG tumour, heart	intravenous, 1.85 MBq, 1 h, radiolabelled	0.06 ± 0.02
CC[C@H](C)[C@H](NC(=O)[C@@H](Cc1c[nH]c2ccccc12)NC(=O)[C@@H]1CCCN1C(=O)[C@H](CCCCN)NC(=O)[C@H](CCCCN)NC(=O)CCNC(=O)CCNC(=O)CN1CCN(CC(=O)O)CCN(CC(=O)O)CCN(CC(=O)O)CC1)C(=O)N[C@@H](C[Si](C)(C)C)C(=O)O [gallium-68 labelled]	ex vivo biodistribution	nude mice, HT-29 xenograft, pancreas	90 min, with: levocabastine 0.5 µmol	0.3 ± 0.13
CC[C@H](C)[C@H](NC(=O)[C@H](CCCNC(=N)N)NC(=O)[C@H](CCCCN)NC(=O)[C@H](Cc1ccc(O)cc1)NC(=O)[C@H](CC(=O)O)NC(=O)[C@H](C)NC(=O)CNC(=O)CCOCCOCCOCCNC(=O)CN1CCN(CC(=O)O)CCN(CC(=O)O)CCN(CC(=O)O)CC1)C(=O)N[C@H](C(=O)N[C@H](C(=O)N[C@@H](CCCCN)C(=O)N[C@H](C(=O)N[C@@H](CC(N)=O)C(N)=O)C(C)C)C(C)C)[C@@H](C)O [copper-64 labelled]	ex vivo gamma counting	C57BL/6J male mice, B16-F10 tumour, liver	intravenous, 1.85 MBq, 5 min	2.72 ± 0.203
CC[C@H](C)[C@H](NC(=O)[C@H](CCCCN)NC(=O)CNC(=O)[C@H](CC(C)C)NC(=O)[C@H](Cc1ccccc1)NC(=O)[C@H](CCCCN)NC(=O)[C@H](CO)NC(=O)[C@H](Cc1ccccc1)NC(=O)[C@H](Cc1c[nH]c2ccccc12)NC(=O)[C@H](CCC(N)=O)NC(=O)[C@@H](NC(=O)[C@H](Cc1ccccc1)NC(=O)CCCCCNC(=O)CN1CCN(CC(=O)O)CCN(CC(=O)O)CCN(CC(=O)O)CC1)C(C)C)C(=O)N[C@@H](CCC(=O)O)C(=O)N1CCC[C@H]1C(=O)N[C@@H](CC(=O)O)C(=O)N[C@H](C(=O)N[C@@H](CO)C(=O)N[C@@H](CCC(N)=O)C(=O)N[C@H](C(=O)N[C@@H](CCC(N)=O)C(=O)N[C@@H](CC(=O)O)C(=O)N1CCC[C@H]1C(=O)N[C@@H](CC(N)=O)C(=O)N[C@@H](CC(=O)O)C(=O)N[C@@H](CCC(N)=O)C(=O)N[C@@H](Cc1ccc(O)cc1)C(=O)N[C@@H](CCC(=O)O)C(=O)N1CCC[C@H]1C(=O)N[C@@H](Cc1ccccc1)C(=O)O)C(C)C)C(C)C [copper-64 labelled]	–	C57BL/6 mice, male, naive, white fat	1 h	0.46 ± 0.09

A few entries again:
SMILES	assay	system	conditions	tissue uptake [%ID/g]
CC(C)C[C@@H](NC(=O)[C@@H](CCCNC(=N)N)NC(=O)[C@@H](Cc1c[nH]cn1)NC(=O)[C@@H](Cc1c[nH]c2ccccc12)NC(=O)[C@@H](Cc1c[nH]cn1)NC(=O)[C@@H](Cc1ccccc1)NC(=O)[C@H](NC(=O)[C@@H](Cc1ccc(O)cc1)NC(=O)CNC(=O)CNC(=O)CCOCCOCCOCCNC(=O)CN1CCN(CC(=O)O)CCN(CC(=O)O)CC1)[C@H](C)O)C(=O)N[C@H](CC(N)=O)C(=O)N1CCC[C@@H]1C(=O)O [gallium-68 labelled]	–	C57BL/6 mice, male, lung	intravenous, 1.85 MBq, 60 min, with: GP12 blocking	1.13 ± 0.32
